Published values pooled from the literature.
A part holds a random share of what one study measured. Changes are numbered by the printed parent chain.

Sample 1
Target: Fragile X messenger ribonucleoprotein 1, C-terminal low-complexity region (Fmr1, Mus musculus, UniProt P35922)
Method: RNA Bind-n-Seq
Form: RNA
Medium: in vitro
Concentration: 200 nM
Setting: whole 134-nt RNA, ends assumed
With: 150 mM LiCl
Relative to: input library
Direction: higher = stronger binding
Each molecule: 7-deaza-guanosine replaces G
Shared flanks, not repeated: GGGAGUUCUACAGUCCGACGAUC … UGGAAUUCUCGGGUGUCAAGG
Sequence	log2 enrichment
AAGUCCUGUGCUACACAUCGUAUGUACCGAAUCGGGAAAGGGUUUUUGGGUUUGGGAAAGUAUUAUGUUACGCCGUUCGGAUCUGCACUU	-2.5
CAAGUCCUGUGCUACACAUCGUAUGUACCGAAUCGGGCCCGGCCCGGGGCCCGGGAAAGUAUUAUGUUACGCCGUUCGGAUCUGCACUUC	-2.24
UGACUUUAGAGGAGGAUCUGAUGGAUAUGGCAGUGGACGUGGAUUUGGGGAUGGCUAUAAUGGGUAUGGAGGAGGACCUGGAGGUGGCAA	0.495
AGUCCUGUGCUACACAUCGUAUGUACCGAAUCGGGUUUUUGGGAAAAAGGGUUUGGGAAAGUAUUAUGUUACGCCGUUCGGAUCUGCACU	-3.13
CUCAAGUCCUGUGCUACACAUCGUAUGUACCGAAUCGGGGCGGGCGGGGCGGGGAAAGUAUUAUGUUACGCCGUUCGGAUCUGCACUUCC	-0.885
UUUGCUGUUGUUAACCAUCAAGGGACCUUGGAGAGUGGCCACUACACCAGCUUUAUCCGGCAGCACAAAGACCAGUGGUUCAAGUGUGAC	-2.18
GGUGUUGCUGGAAGAAGCCAAGGAUUUGCUCUCUGACUGGCUGGAUUCUACACUUGGCUGUGAUGUCACUGACAAUUCCAUCUUCUCCAA	-1.18
GCAGGAAGUAAAAACAAAUGGAAAUGCUUCGGAUAGUGGCAGGGGUGGGGAUUGCUAAGGAAAGGGUGGGAUGGGAGUGGGUAAAGAGUU	1.67
CACAGACAACACGCACCCACACAGACACAGAGUGAAGGGGUUGGGAUGGGGACAGGGUGCACAGCAGGGCGGGGUAGGACCCCAGCCCCU	0.0711
AAGUCCUGUGCUACACAUCGUAUGUACCGAAUCGGGGUGGGGUUUGGGGUUUGGGGAAAGUAUUAUGUUACGCCGUUCGGAUCUGCACUU	-1.36
UAACUUUAGCGGAGGAUCUGAUGGAUAUGGCAGUGGACGUGGAUUUGGGGAUGGCUAUAAUGGGUAUGGAGGAGGACCUGGAGGUGGCAA	0.176

Sample 2
Target: ABI1, truncated, D143A, DHFR fusion (Arabidopsis thaliana)
Method: DHFR PCA, deep sequencing
Medium: yeast
Setting: methotrexate growth selection, single substitutions
With: (+)-ABA 0.032 µM
Relative to: wild-type fitted maximum
Direction: higher = stronger binding
Starting sequence: PYL1, truncated, DHFR fusion (Arabidopsis thaliana); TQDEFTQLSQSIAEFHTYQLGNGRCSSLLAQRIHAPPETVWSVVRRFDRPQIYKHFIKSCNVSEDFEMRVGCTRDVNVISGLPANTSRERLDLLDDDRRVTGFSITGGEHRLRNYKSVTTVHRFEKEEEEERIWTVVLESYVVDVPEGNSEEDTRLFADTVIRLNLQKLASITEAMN
Variant	relative binding score [%]
E139S	1.34
E129D	48.7
F56D	1.58
E174G	-3.09
H16Y	-3.33
V100L	-0.766
H16C	-0.338
D3V	-0.273
E67F	0.742
N114T	-1.73
R90H	-1.89
R132K	48.3
A158V	53.3
S150E	9.94
L166P	11.1
L29F	-1.78

Sample 3
Target: Max dimerization protein 1, bHLH-zipper, MAX partner unstated (MXD1, Homo sapiens, UniProt Q05195, residues 56-136)
Method: protein-binding microarray
Form: double-stranded DNA, one strand shown
Medium: in vitro
Concentration: not given
Setting: k-mer, scored over probes, only values ≥0.25
Direction: higher = stronger binding
Construct (chain): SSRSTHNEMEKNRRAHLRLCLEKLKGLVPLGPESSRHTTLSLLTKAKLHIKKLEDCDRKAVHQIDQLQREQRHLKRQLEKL
Sequence	E-score
GCCCTCCC	0.29
ACACACGA	0.327
ATTCCATG	0.292
CCATGGCA	0.293
ACGAGGGA	0.326
ACGTGCAC	0.346
ACATGGGT	0.394
AATCACGC	0.337
AAGACACG	0.32
GCGTGTAA	0.368
AGCATGTA	0.337
AAGGCATG	0.35
CTGCCCCC	0.26
CCACGCCG	0.384
CAAGGGGC	0.265
AGGCACGC	0.319
ATGTGCCC	0.344
TGCCCCCA	0.303
CATGTGCG	0.469
CGTCACGC	0.283
AAAGCGTG	0.39
ACGTGGGC	0.392
AGGGCACG	0.31
CCATGGGG	0.274
CATGTGAG	0.434

Sample 4
Target: RNA binding protein fox-1 homolog 2, RRM domain, GST-SBP tag (RBFOX2, Homo sapiens, UniProt O43251-10, residues 100-194)
Method: RNA Bind-n-Seq
Form: RNA
Medium: in vitro
Concentration: 365 nM
Setting: natural RNA segment, single round, ends assumed
Relative to: no-protein control
Direction: higher = stronger binding
Shared flanks, not repeated: GGGAGUUCUACAGUCCGACGAUC … UGGAAUUCUCGGGUGCCAA
Target sequence (chain): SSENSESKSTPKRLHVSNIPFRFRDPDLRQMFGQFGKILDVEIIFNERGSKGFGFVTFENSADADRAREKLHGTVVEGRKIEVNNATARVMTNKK
Sequence	RBNS enrichment (R)
GGACGAUGCCAGCCAGAGCCCCACAGAAGCAGCCAGGGCCUUGCAGCUUUGCCCCAAGCCAAUCCCUGCUUUUAAAUGACCCGCAGCGGGGAGCUCUGAAGAAGGAGCUC	0.494
CGCAUGGGGUAAGGGCUUUCAUCUCAGUAAUUCUCUUGUUCUAAGGAGAUCAGCUCCAACUAUGGUGGGGUGAGUUUUUCCUGACUUGGAGGCUUGCCAGAGAAGGUGGA	3.03
CACCUGGAGCCCGCUUCAAGCUCUCUGUUGCGCUCCCGCAUUUCUCAUGCUUCUUCUCAUGGGGUGGGGUUGGGGCAAAGCCUCCUUUUUAAUACAUUAAGUGGGGUAGA	0.418
AAAACUAUAAUAGUUAACAACUGUUAGUAAGAUAGACCAAUUCUGAUUAGACUUUAUCAGGGAAUCUGUUUAAGAUAUGUUUGGUGACCAAAACGUAUGUGUGAAUGUAG	1.28
GUGAAAUAAAAAAAAAUUUUAAGUGUUCUCGGGGAUGCAUAGAUUCAUCAUUUUCUCCACCUUAAAAAUGCGGGCAUUUAAGUCUGUCCAUUAUCUAUAUAGUCCUGUCU	0.386
GGACACUGUGUGACGUCAGCAUCUCAGACAGGCAGGAGAAAAGCACCAGAUACCUGGCUUUCCAUGGUGUGAGCAUUCAGACUGAGAUUAGAACCGCAAUGCAGGCUUGG	0.906
AGUCUUCACUCCAUCCCCAGGUGCUUGUUCACCUCAUUAAUGAGCACCUAGAGCAAGGACCAAAAGAAGGAAAACUAAUUAAAACCAAUGCAUAUUCAUGCCAAAACAAG	0.238
ACUAGACAAAAUAAGUUUUAACAACUUCUCUACAUAUCUGUAAAGAAAAGUAUUUUCUGUUAAUUUUUUUAAUUUUUGGCCAAAUUAUUUUCUCUUUGUCAUUAAAGUCA	0.777
UUGUUGUGCUGGCCCAGGCGUGGGGCUACCAAGCAAAGGCUUGGCAUAUACCAAAGGCCAGCUGCAUGCCCAUCAGUCUGGUCUUUUUCCUCUGCGGUCAUGUUGGCUUU	0.762
CCAGUACCUAACAUUUCUCAUCCACUUCAAAAGCUGUUCUGACUGCCAGCUGGCUGAUCUAAGCUCCUGAGGAAUGUCUCCUCUCAAAGGAAUUUUUCCCUCCAAAGGCC	0.334
GGGAGCAGCUGCAGCCCCUGACUUGUCUGGGGGGAUGUUUAGGAUAUGACAGAGGUUAGAGUCAGUACUGUUGGCGUAAGGAUUUCAUCUUUGGAACACAGGGUAUGCCU	0.955
AAAAAAUAAAAUAAUGUGAAGCAAAACCAACUAAAAAGUGAUUCUUGCACAUGAACUGUCACAUGUUUAAAAAUGUGUUUUUUAGAGAGCCUCAGUCUUACUGAUUUCAA	0.401

Sample 5
Target: Sal-like protein 4, full length isoform A (SALL4, Homo sapiens, UniProt Q9UJQ4, residues 1-1053)
UniProt Q9UJQ4, sequence (whole entry, looked up): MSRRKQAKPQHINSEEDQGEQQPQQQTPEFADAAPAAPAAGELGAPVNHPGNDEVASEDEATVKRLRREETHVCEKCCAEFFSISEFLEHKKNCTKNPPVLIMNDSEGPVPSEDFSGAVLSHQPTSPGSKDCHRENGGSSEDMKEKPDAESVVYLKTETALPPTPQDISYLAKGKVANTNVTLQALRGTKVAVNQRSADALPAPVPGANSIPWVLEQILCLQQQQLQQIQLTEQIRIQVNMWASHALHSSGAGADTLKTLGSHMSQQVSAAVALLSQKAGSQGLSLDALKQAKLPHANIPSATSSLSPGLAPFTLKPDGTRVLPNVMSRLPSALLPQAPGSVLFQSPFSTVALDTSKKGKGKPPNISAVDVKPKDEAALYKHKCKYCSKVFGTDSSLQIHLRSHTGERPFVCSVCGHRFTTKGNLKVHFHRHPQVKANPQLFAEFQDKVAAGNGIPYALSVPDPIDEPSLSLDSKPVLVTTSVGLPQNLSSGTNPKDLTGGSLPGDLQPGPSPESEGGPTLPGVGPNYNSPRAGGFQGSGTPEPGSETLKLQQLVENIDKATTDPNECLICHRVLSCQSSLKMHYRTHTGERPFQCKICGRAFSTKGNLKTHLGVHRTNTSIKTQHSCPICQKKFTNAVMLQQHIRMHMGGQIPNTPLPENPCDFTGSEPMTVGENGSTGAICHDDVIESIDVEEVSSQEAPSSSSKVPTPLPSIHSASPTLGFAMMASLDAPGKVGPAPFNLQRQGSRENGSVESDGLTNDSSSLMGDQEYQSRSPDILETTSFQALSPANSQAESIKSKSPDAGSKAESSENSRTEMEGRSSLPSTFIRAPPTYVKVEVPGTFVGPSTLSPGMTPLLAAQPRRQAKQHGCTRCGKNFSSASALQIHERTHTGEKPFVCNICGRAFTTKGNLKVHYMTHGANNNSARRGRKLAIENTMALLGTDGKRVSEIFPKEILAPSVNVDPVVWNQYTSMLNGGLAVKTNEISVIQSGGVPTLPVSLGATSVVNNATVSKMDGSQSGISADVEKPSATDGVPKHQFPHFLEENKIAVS
Method: universal PBM
Form: double-stranded DNA, one strand shown
Medium: in vitro
Concentration: 600 nM
Setting: 8-mer, flanks averaged, mean of replicates
Direction: higher = stronger binding
Sequence	E-score
CACACGTC	-0.00432
CTTACTCA	0.113
AGTCTTAA	0.0965
TCAGTTAA	0.15
GCCGGCAC	-0.347
CGATTCGA	0.0539
AATGGTGG	-0.0638
ACATGCAG	0.0574
ATTGTCAG	0.115
ATCGTTTA	0.267
ATCCGGTC	-0.298
CGCGGACA	-0.103
GTAATCAC	0.081
CATGCACG	0.0288
AGTAAGCA	0.134
AAGAGCAT	0.0691
ACCAGGGG	-0.234
TGATCGCA	0.0755
AGAAGAGC	-0.0335
CAGACCGG	-0.324
AAAGTAAC	0.17
CGTCGCCC	-0.34
GTCTAGCA	-0.0499
GTACCTGA	0.0562
CAGTCCAC	-0.0839

Repeated from above (sample 2):
Variant	relative binding score [%]
R132K	48.3
E174G	-3.09
N114T	-1.73
L166P	11.1
D3V	-0.273
H16C	-0.338
